Assay results from different studies.
A part holds a random share of what one study measured. Changes are numbered by the printed parent chain.

Set 1 — technique: protein-binding microarray; form: double-stranded DNA, one strand shown; sample: in vitro; concentration: 2200 nM top; notes: 60-bp whole probe; with: salmon DNA 0.4 mg/ml; baseline: random background probes; reading: higher = stronger binding; quantity: fitted relative affinity; constant ends, left off below: GCCTAGCAC … GTCTTGATTCGCTTGACGCTGCTG
Target: Interferon regulatory factor 7, full length, phosphomimetic (IRF7, Homo sapiens, UniProt Q92985, residues 1-503, S471D/S472D/S475D/S476D/S477D/S483D/S484D/S487D)
Target sequence (chain): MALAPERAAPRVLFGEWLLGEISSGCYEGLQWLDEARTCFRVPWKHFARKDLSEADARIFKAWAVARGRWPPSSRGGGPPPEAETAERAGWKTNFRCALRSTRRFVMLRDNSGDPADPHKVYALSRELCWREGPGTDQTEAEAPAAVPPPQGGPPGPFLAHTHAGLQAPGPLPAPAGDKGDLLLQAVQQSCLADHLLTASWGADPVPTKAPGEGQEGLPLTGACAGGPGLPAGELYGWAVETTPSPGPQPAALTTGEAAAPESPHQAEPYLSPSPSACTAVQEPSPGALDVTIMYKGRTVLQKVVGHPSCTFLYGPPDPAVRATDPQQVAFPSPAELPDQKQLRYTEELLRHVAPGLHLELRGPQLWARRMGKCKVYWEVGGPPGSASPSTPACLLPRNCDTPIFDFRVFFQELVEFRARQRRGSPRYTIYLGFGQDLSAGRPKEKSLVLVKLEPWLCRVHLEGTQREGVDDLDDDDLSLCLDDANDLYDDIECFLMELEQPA
Strand = TTAGAACTGCTTCTCCTTTAGTGCTAG; result = 0.853 z-score
Strand = TTAGGTATCGGGTTTCGGTTAGTGCTA; result = 4.3 z-score
Strand = TTAGGCCTGGACACTGGGTTAGTGCTA; result = -0.798 z-score
Strand = TTCTATATTTGCTTCAGGTTGTGCTAG; result = 1.29 z-score
Strand = GACGATTTCAGGTTCGAGACGTGCTAG; result = 1.63 z-score
Strand = GACGGTCTCGGGACTGGGGACGTGCTA; result = -0.411 z-score
Strand = TTAGGTTTCCTTCTCCTGTAGTGCTAG; result = 2.71 z-score
Strand = GACGATATCATTTTCGAGACGTGCTAG; result = 3.43 z-score
Strand = TTAGGACTGGGTATCGGTTCGTGCTAG; result = 0.479 z-score
Strand = GACGATTCCAGTTTCGAGAGGTGCTAG; result = 2.85 z-score
Strand = TTATGTCTCCTTATCCTTTAGTGCTAG; result = 2.14 z-score
Strand = TCAGTTGTCCAGGCTGGTACTGTGCTA; result = 0.488 z-score
Strand = GACGGACTGGGTTTCCGGACGTGCTAG; result = -0.0297 z-score
Strand = TTTGGTTTCGGTATCGGTTAGTGCTAG; result = 9.23 z-score
Strand = TTACATCTCAGTATCGATTAGTGCTAG; result = 1.33 z-score
Strand = GACGGACTGGGACTTGGGACGTGCTAG; result = -1.03 z-score
Strand = GACGATATCAGTCTCCAGACGTGCTAG; result = 0.304 z-score
Strand = GACGATTTCAGATTGGAGACGTGCTAG; result = 1.37 z-score
Strand = TTCGGTTTCCTACTGCTTTAGTGCTAG; result = 3.72 z-score
Strand = TCAGTAATCGAAATCTTACTGTGCTAG; result = 0.339 z-score
Strand = TTAGGCATCGGGACTGGGTTAGTGCTA; result = -0.883 z-score
Strand = CCCAGACTTGATTTTGGTCTGTGCTAG; result = 0.405 z-score
Strand = GACGGCCTGGACACTGGGGACGTGCTA; result = -1.06 z-score
Strand = GAAGATTTCAGTATCGAGACGTGCTAG; result = 0.218 z-score

Set 2 — technique: DHFR PCA, deep sequencing; sample: yeast; with: (+)-ABA 0 µM; baseline: wild-type fitted maximum; reading: higher = stronger binding; quantity: relative binding score
Target: ABI1, truncated, D143A, DHFR fusion (Arabidopsis thaliana)
Notes: methotrexate growth selection, single substitutions
Starting sequence: PYL1, truncated, DHFR fusion (Arabidopsis thaliana); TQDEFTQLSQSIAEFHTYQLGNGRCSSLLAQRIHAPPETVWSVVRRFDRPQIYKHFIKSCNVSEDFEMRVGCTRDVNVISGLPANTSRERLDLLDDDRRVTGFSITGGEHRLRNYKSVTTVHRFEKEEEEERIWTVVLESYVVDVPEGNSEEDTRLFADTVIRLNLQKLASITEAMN; partner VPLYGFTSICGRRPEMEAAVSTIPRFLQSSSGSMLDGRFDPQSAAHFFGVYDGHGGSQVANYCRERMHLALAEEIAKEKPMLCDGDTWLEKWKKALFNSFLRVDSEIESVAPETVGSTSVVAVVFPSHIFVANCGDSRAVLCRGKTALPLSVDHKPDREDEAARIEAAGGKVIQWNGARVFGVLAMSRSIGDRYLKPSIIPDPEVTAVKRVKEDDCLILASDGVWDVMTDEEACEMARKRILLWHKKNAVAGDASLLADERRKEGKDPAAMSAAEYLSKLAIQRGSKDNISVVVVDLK
Variant = T119R; result = -3.77%
Variant = C25A; result = 21.6%
Variant = L8Q; result = 6.11%
Variant = Q2M; result = 55.2%
Variant = F5I; result = 24.8%
Variant = G108T; result = -4.55%
Variant = N22I; result = 19.7%
Variant = S63N; result = 23.1%
Variant = V78F; result = 94.3%
Variant = G71E; result = -1.15%
Variant = D96P; result = -8.21%
Variant = A35P; result = 8.47%
Variant = G107H; result = 16.7%
Variant = V40T; result = -0.85%
Variant = Y53S; result = 0.148%
Variant = P37Y; result = 4.61%
Variant = D65I; result = -3.36%
Variant = C25S; result = 2.3%
Variant = N85C; result = 50%
Variant = I133F; result = 4.99%

Set 3 — technique: protein binding microarray; form: double-stranded DNA, one strand shown; sample: in vitro; concentration: not given; baseline: not given; reading: higher = stronger binding; quantity: E-score
Target: Histone acetyltransferase KAT6A, winged helix 1, GST fusion (KAT6A, Homo sapiens, UniProt Q92794, residues 1-85)
Notes: 8-mer, flanks averaged, mean of 2 arrays, mostly near background
Target sequence (chain): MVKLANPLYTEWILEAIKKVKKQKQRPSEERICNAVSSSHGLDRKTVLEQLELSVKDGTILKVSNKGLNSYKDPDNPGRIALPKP
Strand = GCTTCTTA; result = -0.0958
Strand = TGACCCAA; result = -0.216
Strand = AGATGCGG; result = 0.0323
Strand = GGATGAAC; result = -0.0939
Strand = ACTTGGGG; result = -0.0997
Strand = GACTAATC; result = 0.101
Strand = GGTAAACC; result = 0.0784
Strand = AAAAACAT; result = -0.119
Strand = CTGCTAAA; result = -0.0514
Strand = AATGAAAT; result = -0.212
Strand = AGACTAAT; result = -0.0807
Strand = ACAGGCAT; result = -0.057
Strand = CGGCCTTA; result = 0.236
Strand = AACTGCAA; result = -0.156
Strand = TCTAACCA; result = -0.239
Strand = AGATGGGG; result = -0.128
Strand = AAATGCGA; result = -0.00855
Strand = ACCGGGTG; result = 0.329
Strand = CAAAAGGC; result = 0.0699
Strand = GATCCAGC; result = 0.00233
Strand = AAGCTCGC; result = 0.0903
Strand = GGAATCAA; result = 0.0313

Set 4 — technique: universal PBM; form: double-stranded DNA, one strand shown; sample: in vitro; concentration: not given; reading: higher = stronger binding; quantity: E-score
Target: Sal-like protein 4, full length isoform B (SALL4, Homo sapiens, UniProt Q9UJQ4-2, residues 1-616)
Notes: 8-mer, flanks averaged, mean of replicates
Strand = CAATCGGA; result = -0.132
Strand = CATACCCG; result = -0.232
Strand = ACGCCTTG; result = -0.0692
Strand = TCATTCCA; result = 0.0319
Strand = CTTCCGAC; result = -0.0619
Strand = ACCCCCGC; result = -0.284
Strand = CTCCCGTA; result = -0.0818
Strand = ACCGTTAG; result = 0.00707
Strand = CATCAGTA; result = 0.183
Strand = CGACGGGA; result = -0.175
Strand = ATGGTCGC; result = -0.137
Strand = GAATACCC; result = -0.252
Strand = GTCAATAA; result = 0.351
Strand = CGTACTTC; result = 0.0779
Strand = GGCACAAA; result = 0.0162
Strand = GCGGGGAA; result = -0.0927
Strand = CATGACGC; result = -0.145
Strand = TGAAGTCA; result = -0.0127
Strand = ATGTGGTA; result = 0.173

Set 5 — target: CCND1, cyclin fold, Cln2 fusion (human); technique: yeast growth competition, sequencing; sample: yeast; notes: strong parent motif; baseline: not given; reading: higher = stronger binding; quantity: normalised enrichment score
Starting sequence: CDKN1A docking peptide (human); SKACRRLFGPVDS; partner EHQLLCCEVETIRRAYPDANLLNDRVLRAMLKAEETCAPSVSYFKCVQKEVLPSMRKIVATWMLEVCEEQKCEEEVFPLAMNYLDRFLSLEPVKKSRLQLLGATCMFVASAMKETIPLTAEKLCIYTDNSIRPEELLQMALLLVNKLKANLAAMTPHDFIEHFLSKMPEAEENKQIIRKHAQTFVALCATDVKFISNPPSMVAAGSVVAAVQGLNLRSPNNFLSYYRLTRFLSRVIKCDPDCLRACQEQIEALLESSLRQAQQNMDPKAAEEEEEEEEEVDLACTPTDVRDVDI
Variant = P10K; result = 1.18
Variant = V11P; result = 3.15
Variant = R5V; result = 0.726
Variant = A3H; result = 0.524
Variant = F8L; result = -0.252
Variant = L7W; result = 0.515
Variant = L7S; result = -0.0665
Variant = R6T; result = 1.36
Variant = R5D; result = -0.0992
Variant = K2H; result = 2.6
Variant = R6V; result = 4.03
Variant = L7N; result = 0.0374
Variant = C4L; result = 0.608
Variant = K2S; result = 3.29
Variant = K2F; result = 1.35
Variant = A3G; result = 0.439
Variant = G9R; result = 0.846
Variant = V11T; result = 3.72

A few entries again (set 1):
Strand = TTAGGTTTCCTTCTCCTGTAGTGCTAG; result = 2.71 z-score
Strand = TTATGTCTCCTTATCCTTTAGTGCTAG; result = 2.14 z-score
Strand = TCAGTTGTCCAGGCTGGTACTGTGCTA; result = 0.488 z-score
Strand = GACGGCCTGGACACTGGGGACGTGCTA; result = -1.06 z-score
Strand = GACGGACTGGGTTTCCGGACGTGCTAG; result = -0.0297 z-score
Strand = GACGATTTCAGATTGGAGACGTGCTAG; result = 1.37 z-score
Strand = GACGGACTGGGACTTGGGACGTGCTAG; result = -1.03 z-score
